{"data": "Measured values collected from several papers", "organism": "Acinetobacter baumannii", "note": "Each line is one published result; not all experiments were run side by side."}
{"SMILES": "CC(NCCC(c1ccccc1)c1ccccc1)c1ccccc1 (stereo not drawn)", "assay": "growth inhibition", "test system": "Tn7::dCas9 vector control", "setting": "without ATc", "MIC": "4 µg/mL"}
{"SMILES": "C[C@H]1COc2c(N3CCN(C)CC3)c(F)cc3c(=O)c(C(=O)O)cn1c23", "test system": "carbapenem-resistant clinical isolate", "MIC": "> 4 µg/mL"}
{"SMILES": "CC[C@H](C)[C@H](NC(=O)CN)C(=O)NCC(=O)N[C@@H](C)C(=O)N[C@H](C(=O)N[C@@H](CC(C)C)C(=O)N[C@@H](CCCCN)C(=O)N[C@H](C(=O)N[C@@H](CC(C)C)C(=O)N[C@H](C(=O)N[C@H](C(=O)NCC(=O)N[C@@H](CC(C)C)C(=O)N1CCC[C@H]1C(=O)N[C@@H](C)C(=O)N[C@@H](CC(C)C)C(=O)N[C@H](C(=O)N[C@@H](CO)C(=O)N[C@@H](Cc1c[nH]c2ccccc12)C(=O)N[C@H](C(=O)N[C@@H](CCCCN)C(=O)N[C@@H](CCCNC(=N)N)C(=O)N[C@@H](CCCCN)C(=O)N[C@@H](CCCNC(=N)N)C(=O)N[C@@H](CCC(N)=O)C(=O)N[C@@H](CCC(N)=O)C(N)=O)[C@@H](C)CC)[C@@H](C)CC)[C@@H](C)O)[C@@H](C)O)C(C)C)C(C)C", "test system": "CCARM 12004 carbapenem-resistant", "MIC": "8 µM"}
{"SMILES": "CC[C@H](C)[C@H](NC(=O)[C@H](CC(C)C)NC(=O)[C@H](CCCNC(=N)N)NC(=O)[C@@H](N)CCCNC(=N)N)C(=O)N[C@@H](CC(C)C)C(=O)N[C@H](C(=O)N[C@@H](CCCCN)C(=O)N[C@H](C(=O)NCC(=O)N1CCC[C@H]1C(=O)N[C@H](C(=O)N[C@H](C(=O)N[C@@H](Cc1ccc(O)cc1)C(=O)N[C@@H](CCCCN)C(=O)N[C@@H](Cc1ccc(O)cc1)C(=O)N[C@@H](Cc1ccccc1)C(=O)N[C@@H](CCCCN)C(=O)N[C@@H](CCCCN)C(=O)N[C@@H](CCC(N)=O)C(=O)N[C@@H](CC(C)C)C(=O)N[C@@H](CCCCN)C(=O)N[C@@H](CCCCN)C(=O)N[C@@H](CC(C)C)C(N)=O)[C@@H](C)CC)[C@@H](C)CC)[C@@H](C)O)[C@@H](C)O", "test system": "KCCM 40203, Mueller-Hinton broth", "setting": "24 h", "MIC": "2 µM"}
{"SMILES": "NCCCC1CN(c2ccc3c(n2)NC(=O)CO3)C(=O)O1 (stereo not drawn)", "test system": "ATCC 19606", "MIC": "160 µg/mL"}
{"SMILES": "CC(C)C[C@@H](NC(=O)CNC(=O)[C@@H](CCCCN)NC(=O)[C@@H](CC(C)C)NC(=O)[C@@H](CCCCN)NC(=O)[C@@H](CCCNC(=N)N)NC(=O)[C@@H](CC(C)C)NC(=O)[C@@H](CC(C)C)NC(=O)[C@@H](CCCNC(=N)N)NC(=O)[C@H](N)CCCNC(=N)N)C(=O)N[C@H](CCCCN)C(=O)N[C@H](CCCCN)C(=O)N[C@H](Cc1ccc(O)cc1)C(=O)N[C@H](CC(C)C)C(=O)N[C@H](Cc1ccc(O)cc1)C(=O)N[C@H](Cc1ccccc1)C(=O)N[C@H](CCCCN)C(=O)N[C@H](CC(C)C)C(=O)N[C@H](CCC(N)=O)C(=O)N[C@H](CC(C)C)C(=O)N[C@H](CC(C)C)C(=O)N[C@H](CCCCN)C(=O)N[C@H](CCCCN)C(N)=O", "test system": "KCCM 40203, Mueller-Hinton broth", "setting": "24 h", "MIC": "2 µM"}
{"SMILES": "CC[C@H](C)[C@H](NC(=O)CNC(=O)[C@H](CC(=O)O)NC(=O)[C@H](CCCNC(=N)N)NC(=O)[C@@H](NC(=O)[C@H](CC(N)=O)NC(=O)[C@H](CCCNC(=N)N)NC(=O)CNC(=O)[C@@H](NC(=O)[C@H](CCCCN)NC(=O)[C@H](CCC(=O)O)NC(=O)[C@@H](NC(=O)[C@H](CCCCN)NC(=O)[C@H](CCCCN)NC(=O)[C@H](C)NC(=O)[C@@H](NC(=O)[C@H](CCCCN)NC(=O)[C@H](C)NC(=O)[C@@H](N)CCCNC(=N)N)[C@@H](C)CC)[C@@H](C)CC)C(C)C)C(C)C)C(=O)N[C@H](C(=O)N[C@@H](CCCCN)C(=O)N[C@@H](C)C(=O)NCC(=O)N1CCC[C@H]1C(=O)N[C@@H](C)C(=O)N[C@H](C(=O)N[C@@H](C)C(=O)N[C@H](C(=O)N[C@H](C(=O)NCC(=O)N[C@@H](CCC(N)=O)C(=O)N[C@@H](C)C(=O)N[C@@H](C)C(=O)N[C@H](C(=O)N[C@H](C(=O)N[C@H](C(=O)N[C@@H](CCCCN)C(N)=O)C(C)C)C(C)C)[C@@H](C)O)C(C)C)C(C)C)C(C)C)[C@@H](C)CC", "test system": "KCCM 40203, Mueller-Hinton broth", "setting": "16 h, 37 °C", "scale": "growth inhibition over 99%", "MIC": "16 µM"}
{"SMILES": "CC(=O)N[C@@H](CCCCN)C(=O)N[C@@H](CCCCN)C(=O)N[C@@H](C)C(=O)N[C@@H](CC(C)C)C(=O)N[C@@H](CCCCN)C(=O)N[C@@H](CC(C)C)C(=O)N[C@@H](CC(C)C)C(=O)N[C@@H](CCCCN)C(=O)N[C@@H](CCCCN)C(=O)N1CCC[C@H]1C(=O)N[C@@H](CC(C)C)C(=O)N[C@@H](CCCCN)C(=O)N[C@@H](CC(C)C)C(=O)N[C@@H](CC(C)C)C(=O)N[C@@H](CCCCN)C(N)=O", "assay": "broth microdilution", "test system": "ATCC 17978", "setting": "18 h, 37 °C, compound alone", "MIC": "> 80 µM"}
{"SMILES": "CC[C@H](C)[C@H](NC(=O)[C@H](CC(C)C)NC(=O)[C@@H](NC(=O)[C@H](CCCNC(=N)N)NC(=O)[C@H](CCCNC(=N)N)NC(=O)[C@H](CCCNC(=N)N)NC(=O)[C@@H](N)CCCNC(=N)N)[C@@H](C)CC)C(=O)N[C@@H](CCCNC(=N)N)C(=O)N[C@@H](CCCNC(=N)N)C(=O)N[C@H](C(=O)N[C@@H](CC(C)C)C(=O)N[C@@H](CCCNC(=N)N)C(=O)N[C@@H](CC(C)C)C(=O)N[C@@H](CCCNC(=N)N)C(=O)N[C@@H](CO)C(=O)N[C@@H](CO)C(=O)N[C@@H](C)C(=O)N[C@@H](Cc1ccc(O)cc1)C(N)=O)C(C)C", "assay": "broth microdilution", "test system": "ATCC 17978", "setting": "highest value reported", "MIC": "16 µM"}
{"SMILES": "CC[C@H](C)[C@H](NC(=O)CNC(=O)[C@H](CC(=O)O)NC(=O)[C@H](CCCNC(=N)N)NC(=O)[C@@H](NC(=O)[C@H](CC(N)=O)NC(=O)[C@H](CCCNC(=N)N)NC(=O)CNC(=O)[C@@H](NC(=O)[C@H](CCCCN)NC(=O)[C@H](CCC(=O)O)NC(=O)[C@@H](NC(=O)[C@H](CCCCN)NC(=O)[C@H](CCCCN)NC(=O)[C@H](Cc1ccccc1)NC(=O)[C@@H](NC(=O)[C@H](CCCCN)NC(=O)[C@H](Cc1c[nH]c2ccccc12)NC(=O)[C@@H](N)CCCNC(=N)N)[C@@H](C)CC)[C@@H](C)CC)C(C)C)C(C)C)C(=O)N[C@H](C(=O)N[C@@H](CCCCN)C(=O)N[C@@H](C)C(N)=O)[C@@H](C)CC", "test system": "KCCM 40203, Mueller-Hinton broth", "setting": "16 h, 37 °C", "scale": "growth inhibition over 99%", "MIC": "32 µM"}
{"SMILES": "CC(C)C[C@H](NC(=O)[C@@H](NC(=O)[C@H](CCCNC(=N)N)NC(=O)[C@H](CCC(N)=O)NC(=O)[C@H](Cc1ccccc1)NC(=O)[C@H](Cc1ccc(O)cc1)NC(=O)[C@H](CC(N)=O)NC(=O)[C@H](Cc1c[nH]c2ccccc12)NC(=O)[C@@H](NC(=O)[C@H](CCCNC(=N)N)NC(=O)[C@H](CCCCN)NC(=O)[C@@H](N)Cc1ccccc1)C(C)C)C(C)C)C(=O)N[C@H](C(=O)N[C@@H](CCCCN)C(=O)N[C@@H](CCCCN)C(N)=O)C(C)C", "assay": "broth dilution", "test system": "ATCC 19606", "MIC": "> 100 µM"}
{"SMILES": "CC[C@H](C)[C@H](NC(=O)[C@H](CC(C)C)NC(=O)[C@H](CCCNC(=N)N)NC(=O)[C@@H](N)CCCNC(=N)N)C(=O)N[C@@H](CCCNC(=N)N)C(=O)N[C@@H](CCCCN)C(=O)N[C@@H](CC(C)C)C(=O)N[C@@H](CCCCN)C(=O)NCC(=O)N[C@@H](CC(C)C)C(=O)N[C@@H](CCCCN)C(=O)N[C@@H](CCCCN)C(=O)N[C@@H](Cc1ccc(O)cc1)C(=O)N[C@@H](CC(C)C)C(=O)N[C@@H](Cc1ccc(O)cc1)C(=O)N[C@@H](Cc1ccccc1)C(=O)N[C@@H](CCCCN)C(=O)N[C@@H](CC(C)C)C(=O)N[C@@H](CCC(N)=O)C(=O)N[C@@H](CC(C)C)C(=O)N[C@@H](CC(C)C)C(=O)N[C@@H](CCCCN)C(=O)N[C@@H](CCCCN)C(N)=O", "test system": "KCCM 40203, Mueller-Hinton broth", "setting": "24 h", "MIC": "2 µM"}
{"SMILES": "CC[C@H](C)[C@H](NC(=O)[C@H](CC(C)C)NC(=O)[C@H](CCCCN)NC(=O)[C@@H](NC(=O)[C@H](C)NC(=O)[C@H](CCC(=O)O)NC(=O)[C@H](Cc1c[nH]cn1)NC(=O)[C@@H](NC(=O)[C@H](CCCCN)NC(=O)[C@H](CCC(N)=O)NC(=O)[C@H](Cc1ccccc1)NC(=O)[C@@H](NC(=O)[C@H](CCCCN)NC(=O)[C@@H](N)CCCCN)C(C)C)[C@@H](C)CC)[C@@H](C)CC)C(N)=O", "assay": "CLSI broth microdilution", "test system": "ATCC 19606", "setting": "18 h, 37 °C", "MIC": "64 µM"}
{"SMILES": "CC[C@H](C)[C@H](NC(=O)CNC(=O)[C@H](CC(=O)O)NC(=O)[C@H](CCCNC(=N)N)NC(=O)[C@@H](NC(=O)[C@H](CC(N)=O)NC(=O)[C@H](CCCNC(=N)N)NC(=O)CNC(=O)[C@@H](NC(=O)[C@H](CCCCN)NC(=O)[C@H](CCC(=O)O)NC(=O)[C@@H](NC(=O)[C@H](CCC(=O)O)NC(=O)[C@H](CCCCN)NC(=O)[C@H](Cc1ccccc1)NC(=O)[C@@H](NC(=O)[C@H](CCCCN)NC(=O)[C@H](Cc1c[nH]c2ccccc12)NC(=O)[C@@H](N)CCCNC(=N)N)[C@@H](C)CC)[C@@H](C)CC)C(C)C)C(C)C)C(=O)N[C@H](C(=O)N[C@@H](CCCCN)C(=O)N[C@@H](C)C(=O)NCC(=O)N1CCC[C@H]1C(=O)N[C@@H](C)C(=O)N[C@H](C(=O)N[C@@H](C)C(=O)N[C@H](C(=O)N[C@H](C(=O)NCC(=O)N[C@@H](CCC(N)=O)C(=O)N[C@@H](C)C(=O)N[C@@H](C)C(=O)N[C@H](C(=O)N[C@H](C(=O)N[C@H](C(=O)N[C@@H](CCCCN)C(N)=O)C(C)C)C(C)C)[C@@H](C)O)C(C)C)C(C)C)C(C)C)[C@@H](C)CC", "test system": "KCCM 40203, Mueller-Hinton broth", "setting": "16 h, 37 °C", "scale": "growth inhibition over 99%", "MIC": "8 µM"}
{"SMILES": "CC[C@@H](C)[C@@H](N)C(=O)N[C@@H](C(=O)N[C@H](Cc1ccc(O)cc1)C(=O)N[C@@H](C(=O)N[C@H](CCN)C(=O)N[C@H](CC(C)C)C(=O)N[C@H](CO)C(=O)N[C@H](CCN)C(=O)N[C@@H](C(=O)N[C@H](CCN)C(=O)N[C@H](Cc1c[nH]cn1)C(=O)N[C@H](CCN)C(=O)N[C@H](C)C(=O)N[C@H](CCN)C(=O)N[C@H](CCN)C(N)=O)[C@H](C)CC)[C@H](C)CC)[C@H](C)CC", "test system": "17978, colistin-sensitive, Mueller-Hinton broth", "MIC": "4 µg/mL"}
{"note": "Some of these lines once more:"}
{"SMILES": "NCCCC1CN(c2ccc3c(n2)NC(=O)CO3)C(=O)O1 (stereo not drawn)", "test system": "ATCC 19606", "MIC": "160 µg/mL"}
{"SMILES": "CC[C@H](C)[C@H](NC(=O)[C@H](CC(C)C)NC(=O)[C@H](CCCNC(=N)N)NC(=O)[C@@H](N)CCCNC(=N)N)C(=O)N[C@@H](CCCNC(=N)N)C(=O)N[C@@H](CCCCN)C(=O)N[C@@H](CC(C)C)C(=O)N[C@@H](CCCCN)C(=O)NCC(=O)N[C@@H](CC(C)C)C(=O)N[C@@H](CCCCN)C(=O)N[C@@H](CCCCN)C(=O)N[C@@H](Cc1ccc(O)cc1)C(=O)N[C@@H](CC(C)C)C(=O)N[C@@H](Cc1ccc(O)cc1)C(=O)N[C@@H](Cc1ccccc1)C(=O)N[C@@H](CCCCN)C(=O)N[C@@H](CC(C)C)C(=O)N[C@@H](CCC(N)=O)C(=O)N[C@@H](CC(C)C)C(=O)N[C@@H](CC(C)C)C(=O)N[C@@H](CCCCN)C(=O)N[C@@H](CCCCN)C(N)=O", "test system": "KCCM 40203, Mueller-Hinton broth", "setting": "24 h", "MIC": "2 µM"}
